Results pooled from the literature.
Lines come from different studies, so protocols differ. Several values in a cell are separate wells, animals, samples, runs or records. Numbers after ± are the reported error.

Compound	assay	test system	setting	how to read	quantity	value
Cc1n[nH]c(C)c1CCCOc1cc(OCCCCCCNCCOCCOCCn2cc(CNc3ccc(C(=O)O)cc3)nn2)cc(C(=O)O)c1		water	72 (unit not given), pH 3.5, 37 °C		solubility	≥ 200 µM
CC[C@H](C)[C@H](NC(=O)[C@H](C)NC(=O)CNC(=O)[C@H](CCCCN)NC(=O)[C@@H](NC(=O)[C@H](CC(C)C)NC(=O)[C@H](C)NC(=O)CNC(=O)[C@H](CC(C)C)NC(=O)[C@@H](N)Cc1ccccc1)[C@@H](C)CC)C(=O)N[C@@H](Cc1c[nH]cn1)C(=O)NCC(=O)NCC(=O)N[C@@H](CCCNC(=N)N)C(=O)N[C@@H](Cc1ccccc1)C(=O)N[C@H](C(=O)N[C@@H](Cc1c[nH]cn1)C(=O)NCC(=O)N[C@@H](CCSC)C(=O)N[C@H](C(=O)N[C@@H](CCC(N)=O)C(=O)N[C@@H](CC(N)=O)C(=O)N[C@@H](Cc1c[nH]cn1)C(=O)N[C@@H](Cc1c[nH]cn1)C(N)=O)[C@@H](C)CC)[C@@H](C)CC		zebrafish embryos 4 hpf, E3 medium	24 h		chronic toxic concentration	1 µM
CC[C@H](C)[C@@H](C(=O)N[C@@H](CC(C)C)C(=O)N[C@@H](CO)C(=O)N[C@@H](CO)C(=O)N[C@H](C(=O)N[C@@H](CCC(=O)O)C(=O)N[C@H](C(=O)NCC(=O)N[C@@H](CO)C(=O)N[C@@H](CC(N)=O)C(=O)N[C@H](C(=O)N1C[C@H](O)C[C@H]1C(N)=O)[C@@H](C)O)C(C)C)[C@@H](C)O)N(C)C(=O)[C@H](C)NC(=O)CN(C)C(=O)[C@H](Cc1ccccc1)NC(=O)[C@H](CO)NC(=O)[C@H](CO)NC(=O)[C@H](CCCNC(=N)N)NC(=O)[C@H](CCC(N)=O)NC(=O)[C@H](CC(C)C)NC(=O)[C@H](Cc1ccccc1)NC(=O)[C@H](Cc1c[nH]cn1)NC(=O)[C@H](C)NC(=O)[C@H](CC(C)C)NC(=O)[C@H](CCCNC(=N)N)NC(=O)[C@H](CCC(=O)O)NC(=O)[C@@H](NC(=O)[C@H](C)NC(=O)[C@@H]1CCCCn2cc(nn2)C[C@H](NC(=O)[C@H](CCCNC(=N)N)NC(=O)CC[C@H](NC(=O)CCCCCCCCCCCCCCCCCCC(=O)O)C(=O)O)C(=O)NCC(=O)N[C@@H]([C@@H](C)O)C(=O)N[C@@H](C)C(=O)N[C@@H]([C@@H](C)O)C(=O)N1)[C@@H](C)O	RP-HPLC	water	1.0 mg/mL, 7 days, pH 7.5, 40 °C		main peak area remaining	98%
COc1ccc(CNc2ccc3c(c2)S(=O)(=O)C=C3)cc1	flow cytometry	male C57BL/6 mice, spleen	i.p., 5 mg/kg, 8 days	reference: CD45+ cells	CD4+ cells	16.2%
CC(C)=CCC/C(C)=C\CCn1cc(CC(P(=O)(O)O)P(=O)(O)O)nn1		mouse CD-1	intravenous, 0.3 mg/kg, 2 h	reference: dose	biliary excretion	0.33%
CSCC[C@H](N)C(=O)N[C@@H](C)C(=O)N[C@@H](CCCNC(=N)N)C(=O)N[C@@H](CCCNC(=N)N)C(=O)N[C@@H](CC(=O)O)C(=O)N[C@@H](CCCCN)C(=O)N[C@H](C(=O)N[C@@H](CC(=O)O)C(=O)N[C@@H](Cc1ccccc1)C(=O)N[C@@H](C)C(=O)N[C@@H](CCCNC(=N)N)C(=O)N[C@@H](CCCNC(=N)N)C(=O)N[C@@H](CCCNC(=N)N)C(=O)N[C@@H](CCCNC(=N)N)C(=O)NCCCCCC(=O)NCCCCC(NC(=O)CCCCCNC(=O)[C@H](CCCNC(=N)N)NC(=O)[C@H](CCCNC(=N)N)NC(=O)[C@H](CCCNC(=N)N)NC(=O)[C@H](CCCNC(=N)N)NC(=O)[C@H](C)NC(=O)[C@H](Cc1ccccc1)NC(=O)[C@H](CC(=O)O)NC(=O)[C@@H](NC(=O)[C@H](CCCCN)NC(=O)[C@H](CC(=O)O)NC(=O)[C@H](CCCNC(=N)N)NC(=O)[C@H](CCCNC(=N)N)NC(=O)[C@H](C)NC(=O)[C@@H](N)CCSC)[C@@H](C)O)C(=O)NCCCCC(NC(=O)C(CCCCNC(=O)CCCCCNC(=O)[C@H](CCCNC(=N)N)NC(=O)[C@H](CCCNC(=N)N)NC(=O)[C@H](CCCNC(=N)N)NC(=O)[C@H](CCCNC(=N)N)NC(=O)[C@H](C)NC(=O)[C@H](Cc1ccccc1)NC(=O)[C@H](CC(=O)O)NC(=O)[C@@H](NC(=O)[C@H](CCCCN)NC(=O)[C@H](CC(=O)O)NC(=O)[C@H](CCCNC(=N)N)NC(=O)[C@H](CCCNC(=N)N)NC(=O)[C@H](C)NC(=O)[C@@H](N)CCSC)[C@@H](C)O)NC(=O)CCCCCNC(=O)[C@H](CCCNC(=N)N)NC(=O)[C@H](CCCNC(=N)N)NC(=O)[C@H](CCCNC(=N)N)NC(=O)[C@H](CCCNC(=N)N)NC(=O)[C@H](C)NC(=O)[C@H](Cc1ccccc1)NC(=O)[C@H](CC(=O)O)NC(=O)[C@@H](NC(=O)[C@H](CCCCN)NC(=O)[C@H](CC(=O)O)NC(=O)[C@H](CCCNC(=N)N)NC(=O)[C@H](CCCNC(=N)N)NC(=O)[C@H](C)NC(=O)[C@@H](N)CCSC)[C@@H](C)O)C(N)=O)[C@@H](C)O (stereo partly shown)		C57BL/6 mouse female, liver	dose not given, 6 h	reference: total	tissue distribution	6.48% and 2.96% and 7.04%
O=C1NC2(CC2)COc2ncc(F)cc2[C@H]2COCCN2c2ccn3ncc1c3n2		Sprague-Dawley rat, male, serum	oral, 2.5 mg/kg/day, 4 weeks daily, end of recovery period		alanine aminotransferase activity	34.8 ± 11.8 U/L
CCCCCCCCCCCCCCCC(=O)N[C@@H](CCC(=O)NCCOCCOCCC(=O)NCCOCCOCCC(=O)NCCCC[C@H](NC(=O)[C@H](CC(=O)O)NC(=O)[C@H](CC(C)C)NC(=O)[C@H](Cc1ccc(O)cc1)NC(=O)[C@H](CCCCN)NC(=O)[C@H](CO)NC(=O)[C@H](Cc1ccc(O)cc1)NC(=O)[C@H](CC(=O)O)NC(=O)[C@H](CO)NC(=O)[C@@H](NC(=O)[C@H](Cc1ccccc1)NC(=O)[C@@H](NC(=O)CNC(=O)[C@H](CCC(N)=O)NC(=O)[C@@H](CO)NC(=O)[C@@H](N)Cc1c[nH]cn1)[C@@H](C)O)[C@@H](C)O)C(=O)N[C@@H](CCCNC(=N)N)C(=O)N[C@@H](CCCNC(=N)N)C(=O)N[C@@H](C)C(=O)N[C@@H](CCC(N)=O)C(=O)N[C@@H](CC(=O)O)C(=O)N[C@@H](Cc1ccccc1)C(=O)N[C@H](C(=O)N[C@@H](CCC(N)=O)C(=O)N[C@@H](Cc1c[nH]c2ccccc12)C(=O)N[C@@H](CC(C)C)C(=O)N[C@@H](CC(C)C)C(=O)N[C@@H](CC(N)=O)C(=O)N[C@H](C(=O)NCC(=O)NCC(=O)N1CCC[C@H]1C(=O)N[C@@H](CO)C(=O)N[C@@H](CO)C(=O)NCC(=O)N[C@@H](C)C(=O)N1CCC[C@H]1C(=O)N1CCC[C@H]1C(=O)N1CCC[C@H]1C(=O)N[C@@H](CO)C(N)=O)[C@@H](C)O)C(C)C)C(=O)O		Sprague-Dawley rat, female	subcutaneous, 100 µg/kg once daily, 14 days		total bilirubin	1.3 ± 0.7 µmol/L
C/C(=N\OCCCN1CCCCC1)c1ccc(C(F)(F)F)cc1		mouse, plasma	oral, 100 mg/kg once daily, day 1		Cmax	2320 ± 930 ng/mL
CC[C@H](C)[C@H](NC(=O)[C@H](CCCCN)NC(=O)CNC(=O)[C@H](CC(C)C)NC(=O)[C@H](Cc1ccccc1)NC(=O)[C@H](CCCCN)NC(=O)[C@H](CO)NC(=O)[C@H](Cc1ccccc1)NC(=O)[C@H](Cc1c[nH]c2ccccc12)NC(=O)[C@H](CCC(N)=O)NC(=O)[C@@H](NC(=O)[C@H](Cc1ccccc1)NC(=O)CCCCCNC(=O)CN1CCN(CC(=O)O)CCN(CC(=O)O)CCN(CC(=O)O)CC1)C(C)C)C(=O)N[C@@H](CCC(=O)O)C(=O)N1CCC[C@H]1C(=O)N[C@@H](CC(=O)O)C(=O)N[C@H](C(=O)N[C@@H](CO)C(=O)N[C@@H](CCC(N)=O)C(=O)N[C@H](C(=O)N[C@@H](CCC(N)=O)C(=O)N[C@@H](CC(=O)O)C(=O)N1CCC[C@H]1C(=O)N[C@@H](CC(N)=O)C(=O)N[C@@H](CC(=O)O)C(=O)N[C@@H](CCC(N)=O)C(=O)N[C@@H](Cc1ccc(O)cc1)C(=O)N[C@@H](CCC(=O)O)C(=O)N1CCC[C@H]1C(=O)N[C@@H](Cc1ccccc1)C(=O)O)C(C)C)C(C)C [copper-64 labelled]	dynamic PET	mouse, CT26 tumour, checkpoint inhibitor-treated, tumour	intravenous, 100 µCi/mouse, 1110 s		SUVmean	4.42 SUV
N=C(N)NCCC[C@H](NC(=O)[C@H](CCCNC(=N)N)NC(=O)[C@H](CCCNC(=N)N)NC(=O)[C@H](CCC(N)=O)NC(=O)[C@H](CCCNC(=N)N)NC(=O)[C@H](CCCNC(=N)N)NC(=O)[C@H](CCCCN)NC(=O)[C@H](CCCCN)NC(=O)[C@H](CCCNC(=N)N)NC(=O)CNC(=O)[C@H](Cc1ccc(O)cc1)NC(=O)[C@H](Cc1ccccc1)NC(=O)[C@H](Cc1ccccc1)NC(=O)[C@H](Cc1ccccc1)NC(=O)Cc1ccc2ccccc2c1)C(=O)O		C57BL/6 mice	intraperitoneal, 5 mg/kg, 48 h	direction not given	health score	5
CSCC[C@H](NC(=O)CNC(=O)[C@H](CCCCN)NC(=O)[C@H](CC(C)C)NC(=O)[C@@H]1CCCN1C(=O)[C@H](CO)NC(=O)[C@H](Cc1c[nH]cn1)NC(=O)[C@H](Cc1c[nH]c2ccccc12)NC(=O)[C@H](CCCNC(=N)N)NC(=O)[C@H](CC(C)C)NC(=O)[C@H](CCCNC(=N)N)NC(=O)[C@H](Cc1c[nH]c2ccccc12)NC(=O)[C@H](CS)NC(=O)CCCCCNC(=O)CN1CCN(CC(=O)O)CCN(CC(=O)O)CCN(CC(=O)O)CC1)C(=O)O [copper-64 labelled]	ex vivo biodistribution	C57BL/6J mice bearing B16-F10 tumours, lung	intravenous, 1.85 MBq, 2 h		tissue uptake	7.29 %ID/g
CC(C)C[C@@H](NC(=O)[C@@H](CCCNC(=N)N)NC(=O)[C@@H](Cc1c[nH]cn1)NC(=O)[C@@H](Cc1c[nH]c2ccccc12)NC(=O)[C@@H](Cc1c[nH]cn1)NC(=O)[C@@H](Cc1ccccc1)NC(=O)[C@H](NC(=O)[C@@H](Cc1ccc(O)cc1)NC(=O)CNC(=O)CNC(=O)CCOCCOCCOCCNC(=O)CN1CCN(CC(=O)O)CCN(CC(=O)O)CC1)[C@H](C)O)C(=O)N[C@H](CC(N)=O)C(=O)N1CCC[C@@H]1C(=O)O [gallium-68 labelled]	gamma counting	C57BL/6 mice, male, pancreas	intravenous, 1.85 MBq, 120 min		tissue uptake	0.48 ± 0.19 %ID/g
CC[C@H](C)[C@H](NC(=O)[C@H](C)NC(=O)[C@H](CCCCN)NC(=O)[C@H](CCCCN)NC(=O)[C@@H](N)CCCNC(=N)N)C(=O)N[C@@H](CCCCN)C(=O)N[C@@H](CC(C)C)C(=O)N[C@H](C(=O)N[C@@H](CCCCN)C(=O)N[C@@H](CCCCN)C(=O)N[C@@H](CC(C)C)C(=O)N[C@H](C(=O)N[C@@H](CCCCN)C(=O)N[C@@H](CCCCN)C(=O)N[C@@H](CC(C)C)C(=O)N[C@@H](CCCCN)C(=O)N[C@@H](CCCCN)C(=O)N[C@@H](C)C(=O)N[C@@H](CC(C)C)C(=O)N[C@@H](CCCCN)C(=O)O)C(C)C)C(C)C		human red blood cells	4 mg/L, 1 h		hemolysis	1.24%
CC(C)[C@@H]1NC(=O)CNC(=O)[C@H](CC(N)=O)NC(=O)[C@H](CCCNC(=N)N)NC(=O)[C@H](Cc2ccc(O)cc2)NC(=O)[C@H](C(C)C)NC(=O)[C@@H](NC(=O)[C@@H](NC(=O)[C@H](CC(N)=O)NC(=O)[C@H](Cc2c[nH]c3ccccc23)NC(=O)[C@H](C)NC(=O)[C@H](Cc2ccccc2)NC(=O)CNC(=O)[C@H](CCCCN)NC(=O)[C@H](Cc2ccccc2)NC(=O)[C@H](Cc2ccccc2)NC(=O)[C@H](CCCCN)NC(=O)OCC2c3ccccc3-c3ccccc32)C(C)C)CSSC[C@@H](C(=O)N[C@@H](Cc2c[nH]cn2)C(=O)N[C@@H](CCCNC(=N)N)C(=O)N[C@@H](CCCNC(=N)N)C(=O)N[C@@H](C)C(=O)N[C@@H](CC(N)=O)C(N)=O)NC(=O)[C@H](C(C)C)NC(=O)[C@H](CCCNC(=N)N)NC1=O	HPLC	mouse liver homogenate 50 mg/mL	2.00 h		peptide remaining	44.7% and 41.8% and 47.8%
O=C(CN1C(=O)C2(CCN(C(=O)c3ccc4[nH]ncc4n3)CC2)c2c(Br)cccc21)NCC(F)(F)F		C57BL/6 mice, male	intraperitoneal, 10 mg/kg		bioavailability	79 ± 25%

A few entries again:
Compound	assay	test system	setting	how to read	quantity	value
Cc1n[nH]c(C)c1CCCOc1cc(OCCCCCCNCCOCCOCCn2cc(CNc3ccc(C(=O)O)cc3)nn2)cc(C(=O)O)c1		water	72 (unit not given), pH 3.5, 37 °C		solubility	≥ 200 µM
CC[C@H](C)[C@H](NC(=O)[C@H](C)NC(=O)CNC(=O)[C@H](CCCCN)NC(=O)[C@@H](NC(=O)[C@H](CC(C)C)NC(=O)[C@H](C)NC(=O)CNC(=O)[C@H](CC(C)C)NC(=O)[C@@H](N)Cc1ccccc1)[C@@H](C)CC)C(=O)N[C@@H](Cc1c[nH]cn1)C(=O)NCC(=O)NCC(=O)N[C@@H](CCCNC(=N)N)C(=O)N[C@@H](Cc1ccccc1)C(=O)N[C@H](C(=O)N[C@@H](Cc1c[nH]cn1)C(=O)NCC(=O)N[C@@H](CCSC)C(=O)N[C@H](C(=O)N[C@@H](CCC(N)=O)C(=O)N[C@@H](CC(N)=O)C(=O)N[C@@H](Cc1c[nH]cn1)C(=O)N[C@@H](Cc1c[nH]cn1)C(N)=O)[C@@H](C)CC)[C@@H](C)CC		zebrafish embryos 4 hpf, E3 medium	24 h		chronic toxic concentration	1 µM
